# Published values pooled from the literature.
# Parts stem from different laboratories: compare values within a part only. Changes are numbered by the printed parent chain.

# Block 1
# Target: RING finger protein unkempt homolog, zinc fingers 1-6, GST-SBP tag (UNK, Homo sapiens, UniProt Q9C0B0, residues 30-357)
# Method: RNA Bind-n-Seq
# Molecule type: RNA
# Sample: in vitro
# Concentration: not given
# Notes: RNA with constant flanks, human and mouse sites, ends assumed
# Relative to: input RNA pool
# Direction: higher = stronger binding
# All sequences stand within: GGGAGUUCUACAGUCCGACGAUC … CAACAGAGGAUUGAGCAUCA
# Residues (chain): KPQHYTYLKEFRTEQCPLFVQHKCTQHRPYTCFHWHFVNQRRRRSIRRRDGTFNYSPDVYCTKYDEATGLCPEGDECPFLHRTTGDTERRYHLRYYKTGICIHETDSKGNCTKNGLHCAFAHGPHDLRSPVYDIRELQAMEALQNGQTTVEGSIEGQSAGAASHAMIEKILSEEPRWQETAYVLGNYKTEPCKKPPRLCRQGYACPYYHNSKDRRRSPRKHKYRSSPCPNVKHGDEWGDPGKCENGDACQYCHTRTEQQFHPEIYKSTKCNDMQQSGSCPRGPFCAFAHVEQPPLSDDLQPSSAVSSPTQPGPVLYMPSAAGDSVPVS
Strand,bound/input enrichment
CCCAACCCCUGAGGCCUACAUCCAUCGAGCUGGCAGGACAGCACGCGCUAACAACCCAGGCAUAGUCUUAACCUUUGUGCUUCCCACGGAGCAGUUCCACUUAGGCAAGAUUGAGGAGCU,0.654 ratio
CUGCAGGAGAAAACCGAGUGCCUAAUACAGCAAUAUGAAGCUGUUAGCCUGCUUAACUCAGAGCGCUAUGCUCGCCUAGAGCGAGCACAGGUCUUAGUGAACCAGUUUUGGGAAACAUAC,0.266 ratio
AAUGAAUCAUUGAACAAUCUUUUUAUUACAGAAGAAGAUUAUCAGGCUCUGCGAACAUCAAUAGAUGCUUAUGACAACUUUGACAAUAUCUCGCUUGCUCAGCGUUUGGAAAAACAUGAA,0.177 ratio
AGGUGGCUGCCGCGGCCGCCGAGGAGUCCCUUGCUGAAGGCGGACCGCGGAGCGGCGGGCGGCGCGCGCGCGCCCGAGCGACGGCUGUUGGAGAAGUGGAGCGGCGGCGGUGGAGGAGGG,0.661 ratio
AUUUCAAAAGGAAAUCGGUAGAGGUGCCAGGUAUUGCAGAAAUAGUUGCUAUACUGAGAUUUGUUUUCGGUUUUUACCUUGGCUUUUUUCUUAACUUUAACUUGCAAAGGUUUCAUCUUG,0.187 ratio
UUAGAAGCCUUUGGACAUGCCAAGACCACACUUAAUGAUUUGUCCAGUUGCUUCAUCAAGUAUUUUGAACUGCAGUUCUGUGAGAGGAAACAACAGCUAACCGGAGCCAGAAUUUAUACA,0.313 ratio
GUACUUGCUGUAGGAUUCAAGCUGUCUUUGCACUAGCUCUAAAGAAGAUUUUCUUCUGGUUUUAGAGAACUAAUUUUGUUUUAGCAUUAAACUGUUGAACUUUUUUUUGUACUUAGAAAA,2.57 ratio
UCUGUGAAAACUUCAGUCACAACAUCAAUUUCAGAGCCUUGGACCCAAAGGAGUUUCUAUAGGUCAUCUAAUGCUUCAGAUAAAGAUAGUGAUUUACAGAAAACAUUUUUUUCGUCUUCU,0.29 ratio
AGAGCAGAUCGCGAGUCAGGUUCUGCACAGCCUCCGGCGAGGGCUGGCCCAUCGGAAGGCUCCUUGAACAGUGGGAGCAGGCCGGCCACCAUGACCGAGAACUCCACCUCCGCCCCGGCG,0.0763 ratio
AAUUCCAAGGGCUACACCAAGUCCAUUGAUAUUUGGUCUGUAGGCUGCAUUCUGGCAGAAAUGCUUUCUAACAGGCCCAUCUUUCCAGGGAAGCAUUAUCUUGACCAGCUGAACCACAUU,0.113 ratio
GGACGGUGCUGGUUUUCUACCUGCUUACUCUUGUUCUCACAGGCAGGGGACCAGCAACCCUAGAUAUUUCUGGAACUUCUUUGACCUGGAAGGAACCUUUGGGAGCUGUGACUCCCUGUG,0.397 ratio

# Block 2
# Target: RNA binding protein fox-1 homolog 2, RRM domain, GST-SBP tag (RBFOX2, Homo sapiens, UniProt O43251-10, residues 100-194)
# Method: RNA Bind-n-Seq
# Molecule type: RNA
# Sample: in vitro
# Concentration: 365 nM
# Notes: natural RNA segment, single round, ends assumed
# Relative to: no-protein control
# Direction: higher = stronger binding
# All sequences stand within: GGGAGUUCUACAGUCCGACGAUC … UGGAAUUCUCGGGUGCCAA
# Construct (chain): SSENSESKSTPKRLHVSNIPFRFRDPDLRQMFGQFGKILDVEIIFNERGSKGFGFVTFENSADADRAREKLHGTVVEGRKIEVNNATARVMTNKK
Strand,RBNS enrichment (R)
GAUUCUACAUUUAUUUGUGGGUUUUUUUCCCCUCCUUUCUUUCCACAGCACUUUUGAUAUCAAGCAAGUGGCUUCCUUUUUGAGAUAUUAAAAAAAAAAAGAAAAGGAAA,0.677
UUUAUAAACUCAAAUUGGCACCUACUGAAUUAAAAUACAUAAAAUCAUUUAAAUAUAAUUCAGCAUAUGGGAAGUAACAUUGCACUAAUAUGGAAAUCACUGCCAGAGAC,0.659
GUGCAACUUUCAGGAACUUUACUGCAGGUCAGUUAAACACAACUGUUACUGAAAACUAGAUGUAAACUUAAGUAUUUAGAACAAAAACUACUAGUAAAUACUCAGAACUC,0.476
AGAAUUGCUUCUCAGAUGAUGAUAUCAAAUGUAUAUGCUUUUGCAAGUUUGAAAAGUUCAAAUUAACCACUUUUGACUAGGUAAGUCUUUCUAAAAACCAUUUAAAGCUA,0.538
CGACUGAGGAUUAUGCAACGUGGUCCAACCGGAGCGGCCAGCAUGACCAGCUGUCCAGGGGCUGCCUCCUGCCUUUUCUUUUGUAAAGACAAGACCCUUGGGAGUUUUAA,1.38
GGCUCUACCCCAAACUCUGAGGACUACCUUACAGCUGACUUAAGUGUCUCACUAAAGCAUGAAAUGUGAAUUUUUAUUGUUGGAAAUAUAAUUUAAGGUAUUUAUGUUCU,12
GCUCCUGCCUUUGCCCCCCACUUUAAUCUAAGCACUGGGCCAUGAAAUCUGACACUAAGGUACCCUGAGCAUAGGAGGGGCAUGGGUCGCACCAUUGCACUUUAGAAAUA,1.1
AAUGAACUCUUGCCCUGGAAUAAUCUUGACAAUUAAAACUGAUAUGUUUACUUUUUUUGUAUUGAUCACUUUUUUGCACUCCUUCUUUGUUUUCAAUAUUGUAUUCAGCC,0.847
UGACUCUGCUUGAGAGGUGGCACUUGUCGAACAGCCUGGCACCUGGUAUCCAGGCUCCAACGACCUCAUGCAGGACUCAGACCUGACCCACUGAAUCCCGAGGAGAGGCU,0.782
GCAACUCUCGGGCAGCCUGCCCAAGGGAGGGAGCAAGUUGCAAUUUAGAAGAUGCCAUACGUCGUGUGACAGCUCAUGAGCCUUUCACUGGGCUGGCAAUUGUCUGAACA,0.444
UCUGAUGGAUGUAGUUUUCUUUUUUUAAAUUAGAAAUGCCACUUCUAUUGUAUUGUCUCACACAUGCUCUAUAUAAAUGGGAAAUGUUGAUUUUUUUGAUGAUAGACUAU,0.292
UCAAAGCAGGCCCUCCAGAAACAGUUUGUAGCAACGUCUAGGAUGUGAAGUUUGAAGAUUUCUGAUUAGCUUUCAUCCGGUCUUCAUCUCUAUUUAUCUUAGAAGUUUAG,1.12

# Block 3
# Target: Histone acetyltransferase KAT6A, winged helix 1, GST fusion (KAT6A, Homo sapiens, UniProt Q92794, residues 1-85)
# Method: protein binding microarray
# Molecule type: double-stranded DNA, one strand shown
# Sample: in vitro
# Concentration: not given
# Notes: 8-mer, flanks averaged, mean of 2 arrays, mostly near background
# Relative to: not given
# Direction: higher = stronger binding
# Residues (chain): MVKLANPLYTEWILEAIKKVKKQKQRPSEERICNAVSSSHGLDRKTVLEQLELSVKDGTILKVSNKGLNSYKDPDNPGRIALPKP
Strand,E-score
AGGATACA,-0.309
ATCAAGGC,-0.114
CTACAGCC,-0.0175
CTTGTAAC,0.0691
AGCAGAAC,-0.13
ATCGTCTG,0.0253
CTGAATTC,-0.273
CAAACCAG,-0.244
GGAAACTA,-0.0898
TCAACGCA,0.0266
GTGCCCAC,-0.0193
AAATGATC,-0.103
CCTTCCTA,-0.137
AGTAGTAA,-0.0904
CGAGCCTA,-0.149
GACGCACA,0.208
CCGTTCAA,0.143
AGTATCCG,0.0569
ACGACTGC,-0.0158
AATAGAGT,-0.192
AACTGTGA,-0.0196
GAGTCATA,-0.0765
ATACTCGG,0.113

# Block 4
# Target: Sal-like protein 4, full length isoform B (SALL4, Homo sapiens, UniProt Q9UJQ4-2, residues 1-616)
# Method: universal PBM
# Molecule type: double-stranded DNA, one strand shown
# Sample: in vitro
# Concentration: not given
# Notes: 8-mer, flanks averaged, mean of replicates
# Direction: higher = stronger binding
Strand,E-score
ACAATGAA,0.224
AAGTAGTA,0.204
AAATCCAT,0.243
ACTTTGTC,0.0664
GTTTTGTA,0.17
ACCGAACA,0.0733
TGAGAGAA,0.126
CATTGAAA,0.161
GCATCACC,-0.258
CGCGTGTA,-0.0578
AGCGCTGA,-0.185
CGACGACA,-0.0862
GTTCTCAA,0.143
AGCTTTAC,0.0273
GTTCCCGA,-0.171
GAAAGGTA,0.164
AAGGTACG,0.0912
GGTTTGAA,0.0381
CAGCTCAA,-0.0873

# Block 5
# Target: Centromere-binding protein 1, full length, N-terminal tag (CBF1, Saccharomyces cerevisiae, UniProt P17106, residues 1-351)
# Chain of UniProt P17106 (whole entry, looked up): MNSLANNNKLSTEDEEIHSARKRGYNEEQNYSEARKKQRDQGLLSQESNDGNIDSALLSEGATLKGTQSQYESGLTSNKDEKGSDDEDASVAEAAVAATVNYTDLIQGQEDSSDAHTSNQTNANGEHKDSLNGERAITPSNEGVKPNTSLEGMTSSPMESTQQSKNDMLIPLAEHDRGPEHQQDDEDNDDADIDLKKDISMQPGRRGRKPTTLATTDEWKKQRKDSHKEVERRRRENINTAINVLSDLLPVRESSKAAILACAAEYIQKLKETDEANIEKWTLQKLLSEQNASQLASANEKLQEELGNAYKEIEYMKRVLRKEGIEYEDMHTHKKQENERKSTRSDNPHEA
# Method: protein-binding microarray
# Molecule type: double-stranded DNA, one strand shown
# Sample: in vitro
# Concentration: 0.8 µM
# Notes: whole 60-bp probe, no competitor
# Direction: higher = stronger binding
# All sequences stand within: … GTCTTGATTCGCTTGACGCTGCTG
Strand,fluorescence intensity
CTAGAAGTGAAAATTTTCGTGATAATAGCGATGTTC,521 a.u.
GAATATAACTAGAACATCAGAATTATGTATGCATAG,519 a.u.
GAAAAGTATTAATTGCCCACCACCTTCTTAAAATAG,509 a.u.
GAATAATCATTATGTCACCTTCCTATGCCGTATTAG,568 a.u.
CTAAATAACACTAGTAACATCAACAACACCAATTTC,492 a.u.
GAATTACTTTTACGCCACGAGTGATCTAAAAATTAG,611 a.u.
CTATCCACCTGCGAACACGTGGAAGTCGCAATTTTC,3070 a.u.
CTAGGTGAAGGGTAATACATCAGGTAGGTTGAATTC,501 a.u.
CTATAAAACAACACTCACGTAATAAAAAATCCTTTC,539 a.u.
GAAGAAGTCTGCCATCATGATGTCCAAGAGGGTTAG,512 a.u.
CCTAACTACTATATGCATGCGTAATAGCTTCGTACA,540 a.u.
GAAGACCTGAGCAGGTGACTTAGGTGGAGGAGCTAG,3770 a.u.
TGTACGAAGCTATGCCACGTAAATATAGTAGTTAGG,541 a.u.
GAATGATGTTCTAGTGATGATGTTCTTGTCATATAG,547 a.u.
CTAGTCACTGTCAAACACGTTGCATTGATTAGATTC,576 a.u.
GAAAGCAATGAAGATAACGTGTACAGACTTGGTTAG,620 a.u.
CTAGCCAGAACGCTTCTGGTGGTGTAAATACGGTTC,515 a.u.
CTAAAAAACAGTCATCAGATGTTTGGGAAGCTGTTC,556 a.u.
CTATTGTCACAGTGTCACATCAGCGGCAACTCATTC,614 a.u.

# Block 6
# Target: ABI1, truncated, D143A, DHFR fusion (Arabidopsis thaliana)
# Method: DHFR PCA, deep sequencing
# Sample: yeast
# Notes: methotrexate growth selection, single substitutions
# With: (+)-ABA 0.0091 µM
# Relative to: wild-type fitted maximum
# Direction: higher = stronger binding
# Starting sequence: PYL1, truncated, DHFR fusion (Arabidopsis thaliana); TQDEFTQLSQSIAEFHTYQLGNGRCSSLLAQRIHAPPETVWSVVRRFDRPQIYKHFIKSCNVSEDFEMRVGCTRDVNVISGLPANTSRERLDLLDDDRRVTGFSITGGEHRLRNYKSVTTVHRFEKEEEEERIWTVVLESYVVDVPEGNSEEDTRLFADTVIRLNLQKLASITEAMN
Variant,relative binding score
T106H,1.11%
Q51D,30.4%
L164F,7.19%
R88Y,14%
N22M,17.9%
V136F,8.56%
R98F,-3.26%
D97M,2.9%
D153A,-3.14%
Y141F,-0.138%
Q167V,-0.337%
R163M,23.8%
T173E,0.313%
H110R,20.9%
S27R,0.142%
I57Y,-3.84%
L29V,31.5%
A158G,-2.21%
E152I,4.67%
D96H,0.984%

# A few entries again (block 5):
Strand,fluorescence intensity
CTAGAAGTGAAAATTTTCGTGATAATAGCGATGTTC,521 a.u.
GAATATAACTAGAACATCAGAATTATGTATGCATAG,519 a.u.
GAAAAGTATTAATTGCCCACCACCTTCTTAAAATAG,509 a.u.
GAATAATCATTATGTCACCTTCCTATGCCGTATTAG,568 a.u.
CTAAATAACACTAGTAACATCAACAACACCAATTTC,492 a.u.
GAATTACTTTTACGCCACGAGTGATCTAAAAATTAG,611 a.u.
CTATCCACCTGCGAACACGTGGAAGTCGCAATTTTC,3070 a.u.
CTAGGTGAAGGGTAATACATCAGGTAGGTTGAATTC,501 a.u.
CTATAAAACAACACTCACGTAATAAAAAATCCTTTC,539 a.u.
GAAGAAGTCTGCCATCATGATGTCCAAGAGGGTTAG,512 a.u.
CCTAACTACTATATGCATGCGTAATAGCTTCGTACA,540 a.u.
GAAGACCTGAGCAGGTGACTTAGGTGGAGGAGCTAG,3770 a.u.
